Assay results gathered from unrelated publications.
Numbered parts are unrelated; each lists some results of a single study.

Block 1
Target: Centromere-binding protein 1, full length, N-terminal tag (CBF1, Saccharomyces cerevisiae, UniProt P17106, residues 1-351)
UniProt P17106, sequence (whole entry, looked up): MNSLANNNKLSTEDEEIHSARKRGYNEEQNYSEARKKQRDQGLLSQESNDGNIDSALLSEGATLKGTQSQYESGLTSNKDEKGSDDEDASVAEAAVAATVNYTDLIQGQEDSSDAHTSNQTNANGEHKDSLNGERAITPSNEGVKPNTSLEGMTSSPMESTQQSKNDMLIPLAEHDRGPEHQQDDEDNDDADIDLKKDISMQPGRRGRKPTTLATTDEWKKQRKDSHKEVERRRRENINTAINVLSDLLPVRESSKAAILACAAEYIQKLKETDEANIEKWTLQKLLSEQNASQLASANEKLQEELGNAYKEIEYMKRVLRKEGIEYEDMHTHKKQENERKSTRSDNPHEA
Technique: protein-binding microarray
Form: double-stranded DNA, one strand shown
Matrix: in vitro
Tested at: 0.8 µM
Notes: whole 60-bp probe, no competitor
Reading: higher = stronger binding
The fluorescence intensity of `CTAGGTGAGAATCCTTCTGATGCATACTTTATGTTCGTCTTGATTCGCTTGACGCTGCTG` is reported as 503 a.u.
`CTAATCCGGAAAAACTACGTGACAGGAACGATGTTCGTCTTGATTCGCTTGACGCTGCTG` has a fluorescence intensity of 608 a.u.
With `GAAAAAGTCAGAGCTCACGTCCATACAATTGAGTAGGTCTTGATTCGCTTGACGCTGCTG` the fluorescence intensity was 540 a.u.
`GAATGTGCTGGCGACCACGGGGCTGACAGAGACTAGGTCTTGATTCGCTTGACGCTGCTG` has a fluorescence intensity of 638 a.u.
The fluorescence intensity of `GAAGTTTGGCCCTGTCACGGTTCTTTTTATGGCTAGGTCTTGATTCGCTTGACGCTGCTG` is reported as 630 a.u.
For `TGTACGAAGCTATTACATGTGATTATAGTAGTTAGGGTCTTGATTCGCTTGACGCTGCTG`, the fluorescence intensity was 1460 a.u.

Block 2
Target: Histone acetyltransferase KAT6A, both winged helices, GST fusion (KAT6A, Homo sapiens, UniProt Q92794, residues 1-181)
Technique: protein binding microarray
Form: double-stranded DNA, one strand shown
Matrix: in vitro
Tested at: not given
Notes: 8-mer, flanks averaged, mean of 2 arrays, mostly near background
Reference: not given
Reading: higher = stronger binding
Target sequence (chain): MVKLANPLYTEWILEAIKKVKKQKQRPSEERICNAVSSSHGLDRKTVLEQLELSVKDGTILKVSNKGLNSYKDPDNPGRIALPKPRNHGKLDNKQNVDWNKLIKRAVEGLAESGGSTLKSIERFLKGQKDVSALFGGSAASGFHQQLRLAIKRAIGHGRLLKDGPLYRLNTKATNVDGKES
With `ATGCTCTA` the E-score was -0.054.
The E-score of `GTGAACAC` is reported as 0.0793.
`GCCCAGAA` gave an E-score of -0.197.
The E-score of `TCGCACAA` is reported as 0.0334.
For `TCCGGTAA`, the E-score was 0.0807.

Block 3
Target: Interferon regulatory factor 7, full length, phosphomimetic (IRF7, Homo sapiens, UniProt Q92985, residues 1-503, S471D/S472D/S475D/S476D/S477D/S483D/S484D/S487D)
Technique: protein-binding microarray
Form: double-stranded DNA, one strand shown
Matrix: in vitro
Tested at: 2200 nM top
Notes: 60-bp whole probe
Together with: salmon DNA 0.4 mg/ml
Reference: random background probes
Reading: higher = stronger binding
Shared flanks, not repeated: GCCTAGCAC … GTCTTGATTCGCTTGACGCTGCTG
Residues (chain): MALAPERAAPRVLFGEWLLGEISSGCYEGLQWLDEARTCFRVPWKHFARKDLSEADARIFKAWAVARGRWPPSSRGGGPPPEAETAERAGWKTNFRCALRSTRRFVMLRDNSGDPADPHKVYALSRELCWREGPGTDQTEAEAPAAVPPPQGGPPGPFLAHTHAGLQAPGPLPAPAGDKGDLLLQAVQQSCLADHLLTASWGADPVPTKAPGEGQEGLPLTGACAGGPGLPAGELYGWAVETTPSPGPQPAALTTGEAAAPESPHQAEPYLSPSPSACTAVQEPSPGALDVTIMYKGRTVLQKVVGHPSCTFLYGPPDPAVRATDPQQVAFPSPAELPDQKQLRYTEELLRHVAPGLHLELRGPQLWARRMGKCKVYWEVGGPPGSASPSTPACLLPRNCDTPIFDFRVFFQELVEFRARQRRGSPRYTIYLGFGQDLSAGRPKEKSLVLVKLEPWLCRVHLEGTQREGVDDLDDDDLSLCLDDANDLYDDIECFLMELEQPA
For `TTAGGTTTCCGTTCCCTTTAGTGCTAG`, “fitted relative affinity” read 5.11 z-score.
`CTTAGTTTGTATATATTTTAGTGCTAG` — result for “fitted relative affinity”: 0.618 z-score.
Under “fitted relative affinity”, `GACGGTATCCTTCTCCTGTCGTGCTAG` is recorded as 1.72 z-score.
For `GACGGTTTCTTTCTCCTGACGTGCTAG`, “fitted relative affinity” read 2.83 z-score.
`ATAGGACTGCTACTGCTTTAGTGCTAG` — result for “fitted relative affinity”: 0.105 z-score.
`GACGAACTGAGTCTCGATACGTGCTAG`: “fitted relative affinity” 0.115 z-score.
For `TTAGGTATCGACACTGAGTTAGTGCTA`, “fitted relative affinity” read -0.194 z-score.

Further values, each from its own experiment
For `PhoQ, residues 284 288 289 292 302 303 TGYLSA`, the fold induction was 0.118 (PhoP, residues 12 14 15 18 19 NHTVL (Escherichia coli, UniProt P23836); Sort-seq, refers to: YFP reporter; E. coli; PhoQ-PhoP variant library, together with: 10 µM Mg2+; reference: high Mg2+ state, higher = stronger signaling).

For quick reference, copied from above (block 1):
With `GAAAAAGTCAGAGCTCACGTCCATACAATTGAGTAGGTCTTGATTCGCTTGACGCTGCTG` the fluorescence intensity was 540 a.u.
`GAATGTGCTGGCGACCACGGGGCTGACAGAGACTAGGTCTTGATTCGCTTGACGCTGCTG` has a fluorescence intensity of 638 a.u.
The fluorescence intensity of `GAAGTTTGGCCCTGTCACGGTTCTTTTTATGGCTAGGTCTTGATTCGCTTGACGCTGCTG` is reported as 630 a.u.
